Published values collected from several papers.
Parts stem from different laboratories: compare values within a part only.

Set 1
Target: Interferon regulatory factor 3, full length, phosphomimetic (IRF3, Homo sapiens, UniProt Q14653, residues 1-427, S386D/S396D/S398D/S402D/T404D/S405D)
Method: protein-binding microarray
Molecule type: double-stranded DNA, one strand shown
Medium: in vitro
Concentration: 2540 nM top
Setting: 60-bp whole probe
With: salmon DNA 0.4 mg/ml
Relative to: random background probes
Direction: higher = stronger binding
Shared flanks, not repeated: GCCTAGCAC … GTCTTGATTCGCTTGACGCTGCTG
Construct (chain): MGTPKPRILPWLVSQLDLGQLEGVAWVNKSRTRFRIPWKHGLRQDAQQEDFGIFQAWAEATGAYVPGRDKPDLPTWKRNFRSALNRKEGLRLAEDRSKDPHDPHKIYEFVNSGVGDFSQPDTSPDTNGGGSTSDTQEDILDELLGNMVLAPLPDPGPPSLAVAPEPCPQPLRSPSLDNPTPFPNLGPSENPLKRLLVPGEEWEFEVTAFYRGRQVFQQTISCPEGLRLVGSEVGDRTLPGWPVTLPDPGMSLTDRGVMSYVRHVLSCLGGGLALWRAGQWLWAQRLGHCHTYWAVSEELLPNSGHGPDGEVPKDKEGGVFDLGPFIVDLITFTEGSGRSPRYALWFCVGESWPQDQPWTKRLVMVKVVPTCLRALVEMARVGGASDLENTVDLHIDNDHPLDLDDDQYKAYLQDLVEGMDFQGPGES
Oligonucleotide | fitted relative affinity [z-score]
GACGATTTCGTGTTTCGAGACGTGCTA | 1.91
CTTGTTTCCAGTATATTTAAGTGCTAG | 3.35
TTAGATTTCGGGTATCGATTTGTGCTA | 2.06
TCAAATTTCCACTTTGAACTGTGCTAG | 2.08
TTAGGTTTCAGTTTCGGTTAGTGCTAG | 8.6
GACGATTTCAGTATCCAGACGTGCTAG | 3.04
TTCCTTATTGCTTCCTCTTTGTGCTAG | 1.77

Set 2
Target: RNA binding protein fox-1 homolog 2, RRM domain, GST-SBP tag (RBFOX2, Homo sapiens, UniProt O43251-10, residues 100-194)
Method: RNA Bind-n-Seq
Molecule type: RNA
Medium: in vitro
Concentration: 365 nM
Setting: natural RNA segment, single round, ends assumed
Relative to: no-protein control
Direction: higher = stronger binding
Construct (chain): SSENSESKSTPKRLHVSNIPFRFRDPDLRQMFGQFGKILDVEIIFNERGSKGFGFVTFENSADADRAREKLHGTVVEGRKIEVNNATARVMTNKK
Oligonucleotide | RBNS enrichment (R)
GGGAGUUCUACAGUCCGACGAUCUUCUUUCCAUUCCUUGAUAGGCGAGUAUUCCAAAGCUGGUAUCGUAGCUGCCCUAAUGUUGCAUAUUAGGCGGCGGGGGCAGAGAUAAGGGCCAUCUCUCUGUGAUUCUGUGGAAUUCUCGGGUGCCAA | 0.237
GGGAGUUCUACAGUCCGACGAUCGAUUUUGGAGAAAGCCCAAGGGUCCUUGAGGCCUAGCUGUGGCUGGAAGGGGCUUGGGCAGGGAGAAGCAUCAGUCUAUAGACGACGACGGUUCAGGGGGGGAGUAGGAAUGGAAUUCUCGGGUGCCAA | 0.866
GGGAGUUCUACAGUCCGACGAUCACACCAAGGGCUUUGCCCUGCGCUGCUUUGCCACUGCUGCUGUCCGCUCACUGUCCUGCCUGCUGUCCUCUACAGCUCCCUAUCCUUCCAUGUCUUUGGCCAUGUAGAUUUGGAAUUCUCGGGUGCCAA | 1.85
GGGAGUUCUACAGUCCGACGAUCUGCCAUCACCAUAACCUCUGGGGACCCCAACCUCAGAGGCAGCUUCAAGUGCCUUUUGCUGCGCACCAAUGCCCAGCAGGGGAGGUGAGGGGGGCUGGCGGGGCGAAGUUUGGAAUUCUCGGGUGCCAA | 0.397
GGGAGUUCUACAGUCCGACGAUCGCUCUCUACCCAGCCCAUCUUGCCUCCAUGGUGCCUCUGGAGGCCUCUGGGCCUCCUCUAACAGGGGCUGGUGGGCACCAAGAGCCAAUGGAGUAGACCCCUGGCUGGUAUGGAAUUCUCGGGUGCCAA | 0.393
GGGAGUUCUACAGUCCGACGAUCGCUUCCCCGUGACUAGGAAUUUAGCCAUAAGACUAGUUCAAGGCUAACCACCAAGCUUCCCUUUGACUGGCUCCAAAGGCUUUUAUUUAAGUGAGAUGGAAAAGCUGAAUUGGAAUUCUCGGGUGCCAA | 0.39
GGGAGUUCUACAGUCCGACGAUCGACCAGGCCCUGCCUAGGCCCUGCCGCAGAACCACCAUCCCUGGGAGGCCCUGCAGAGCCCACCUGUGGGGAAAGAGAAGGGGCAGCUUCCGGAUUUUCUUUUGGGGGUUUGGAAUUCUCGGGUGCCAA | 0.271

Set 3
Target: Ras GTPase-activating protein-binding protein 1, full length (G3BP1, Homo sapiens, UniProt Q13283)
Chain of UniProt Q13283 (whole entry, looked up): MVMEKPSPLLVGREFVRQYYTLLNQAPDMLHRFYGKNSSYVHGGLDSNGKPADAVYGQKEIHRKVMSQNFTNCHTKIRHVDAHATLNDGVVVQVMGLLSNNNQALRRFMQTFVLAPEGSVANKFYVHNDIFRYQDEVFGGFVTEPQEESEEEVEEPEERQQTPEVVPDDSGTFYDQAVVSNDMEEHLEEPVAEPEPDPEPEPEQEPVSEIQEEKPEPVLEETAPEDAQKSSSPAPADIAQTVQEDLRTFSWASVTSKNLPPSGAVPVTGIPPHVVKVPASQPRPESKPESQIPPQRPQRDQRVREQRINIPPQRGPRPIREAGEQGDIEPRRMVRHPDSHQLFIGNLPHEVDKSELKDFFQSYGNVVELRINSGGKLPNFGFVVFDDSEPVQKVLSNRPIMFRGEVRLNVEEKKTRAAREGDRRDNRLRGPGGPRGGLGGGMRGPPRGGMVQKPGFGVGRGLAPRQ
Method: RNA Bind-n-Seq
Molecule type: RNA
Medium: in vitro
Concentration: 200 nM
Setting: whole 134-nt RNA, ends assumed
With: 150 mM KCl
Relative to: input library
Direction: higher = stronger binding
Oligonucleotide | log2 enrichment
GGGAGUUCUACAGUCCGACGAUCUUCCUCAAGUCCUGUGCUACACAUCGUAUGUACCGAAUCGGUGGGUGGUGGAAAGUAUUAUGUUACGCCGUUCGGAUCUGCACUUCCAGCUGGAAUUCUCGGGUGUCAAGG | -0.193
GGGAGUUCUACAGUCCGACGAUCCAAGUCCUGUGCUACACAUCGUAUGUACCGAAUCGGUUUUGGGUUUUGGUUUUGGAAAGUAUUAUGUUACGCCGUUCGGAUCUGCACUUCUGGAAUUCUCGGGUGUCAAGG | -1.04
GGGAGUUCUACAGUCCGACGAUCCAAGUCCUGUGCUACACAUCGUAUGUACCGAAUCGGGAAAAAGGGUUUGGGAGGGAAAGUAUUAUGUUACGCCGUUCGGAUCUGCACUUCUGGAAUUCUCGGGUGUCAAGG | 0.723
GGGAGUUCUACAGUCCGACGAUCAAGUCCUGUGCUACACAUCGUAUGUACCGAAUCGGGCCCCGGCCCCGGCCCCGGGGAAAGUAUUAUGUUACGCCGUUCGGAUCUGCACUUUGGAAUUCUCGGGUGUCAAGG | -0.914
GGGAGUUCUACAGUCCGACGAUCUCCUGUGCUACACAUCGUAUGUACCGAAUCGGAAAAAAAGGAAAAAAAGGAAAAAAAGGGAAAGUAUUAUGUUACGCCGUUCGGAUCUGCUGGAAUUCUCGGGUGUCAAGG | -0.255
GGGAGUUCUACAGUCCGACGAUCGUCCUGUGCUACACAUCGUAUGUACCGAAUCGGAAAAAAGGGAAAAAAGGAAAAAAGGGAAAGUAUUAUGUUACGCCGUUCGGAUCUGCAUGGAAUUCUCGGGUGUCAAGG | -0.802
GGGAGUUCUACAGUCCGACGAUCAGUCCUGUGCUACACAUCGUAUGUACCGAAUCGGGGUGGGGAAAAAAAGGGGUGGGGAAAGUAUUAUGUUACGCCGUUCGGAUCUGCACUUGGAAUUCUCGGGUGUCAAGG | 0.247

Single results of other studies
Molecule | target | test | system | conditions | how to read | measurement | result
PhoQ, residues 284 288 289 292 302 303 TASMAF | PhoP, residues 12 14 15 18 19 SQCLL (Escherichia coli, UniProt P23836) | Sort-seq, measured: YFP reporter | E. coli | PhoQ-PhoP variant library, with: 10 µM Mg2+ | relative to: high Mg2+ state, higher = stronger signaling | fold induction | 17.2

For quick reference, copied from above (set 2):
Oligonucleotide | RBNS enrichment (R)
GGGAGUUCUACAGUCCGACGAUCGAUUUUGGAGAAAGCCCAAGGGUCCUUGAGGCCUAGCUGUGGCUGGAAGGGGCUUGGGCAGGGAGAAGCAUCAGUCUAUAGACGACGACGGUUCAGGGGGGGAGUAGGAAUGGAAUUCUCGGGUGCCAA | 0.866
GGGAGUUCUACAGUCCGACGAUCACACCAAGGGCUUUGCCCUGCGCUGCUUUGCCACUGCUGCUGUCCGCUCACUGUCCUGCCUGCUGUCCUCUACAGCUCCCUAUCCUUCCAUGUCUUUGGCCAUGUAGAUUUGGAAUUCUCGGGUGCCAA | 1.85
